Experimental data pooled from the literature.
Parts stem from different laboratories: compare values within a part only.

Block 1 — technique: aptamer microarray, sandwich; molecule type: DNA with 2'F-ANA; sample: in vitro; concentration: 200 nM; with: Cy3 exosite-II aptamer, 400 nM; reading: higher = stronger binding; oligonucleotide: GGTTGGTGTGGTTGG
Target: Prothrombin, mature alpha-thrombin (F2, Homo sapiens, UniProt P00734)
Setting: whole 15-mer aptamer, many near background
Modification | mean fluorescence intensity
2'F-ANA at 1 6 8 9 10 11 14 | 49.1 a.u.
2'F-ANA at 1 7 8 11 13 14 | 69.1 a.u.
2'F-ANA at 1 3 10 11 12 | 123 a.u.
2'F-ANA at 2 3 4 8 10 11 12 13 | 252 a.u.
2'F-ANA at 1 2 5 7 12 13 14 15 | 47.3 a.u.
2'F-ANA at 2 4 5 6 8 9 10 11 13 14 15 | 51 a.u.
2'F-ANA at 1 2 5 7 8 14 | 58.4 a.u.
2'F-ANA at 5 8 9 11 12 13 15 | 99.3 a.u.
2'F-ANA at 1 2 4 5 7 8 9 11 13 15 | 48.9 a.u.
2'F-ANA at 1 3 5 6 8 9 10 11 14 15 | 52.8 a.u.
2'F-ANA at 1 2 5 6 8 9 12 14 | 103 a.u.
2'F-ANA at 1 2 3 5 6 7 10 11 12 13 14 15 | 155 a.u.
2'F-ANA at 2 3 7 10 11 12 | 483 a.u.
2'F-ANA at 2 3 4 5 8 10 11 12 13 14 15 | 60.1 a.u.
2'F-ANA at 2 5 7 14 | 48.3 a.u.
2'F-ANA at 1 2 4 6 8 10 12 15 | 54.9 a.u.

Block 2 — technique: protein-binding microarray; molecule type: double-stranded DNA, one strand shown; sample: in vitro; concentration: 940 nM top; setting: 60-bp whole probe; with: salmon DNA 0.4 mg/ml; reference: random background probes; reading: higher = stronger binding; all sequences stand within: GCCTAGCAC … GTCTTGATTCGCTTGACGCTGCTG
Target: Interferon regulatory factor 5, full length, phosphomimetic (IRF5, Homo sapiens, UniProt Q13568-2, residues 1-514, S451D/S453D/S456D/S462D)
Oligonucleotide | fitted relative affinity
TCACACATATAATTTTGTACTGTGCTA | 0.291 z-score
TTAGATTTCAGTATTGATTAGTGCTAG | 1.01 z-score
ATAACCTTGAACTTCGGCCTGTGCTAG | -0.127 z-score
CTTTCACCTCTCGGCCTGATGTGCTAG | 1.59 z-score
CTCCCTTGAGGTTTTCTCTGGGTGCTA | -0.213 z-score
GACGGACTGGGGTACCGGGACGTGCTA | -0.218 z-score
GACGATCTCAGTAGCGAGACGTGCTAG | 0.109 z-score
TTAGGACTGGGGATTGGGTTAGTGCTA | 0.0427 z-score
GACGGACTGGGTATCGGAACGTGCTAG | 1.14 z-score
TTATTTAGGATAGAACTATAGTGCTAG | -0.41 z-score
GCCCTTATCCAATCAGAATTGTGCTAG | 0.674 z-score
GACGGTATCGGAACTGGGGACGTGCTA | 3.48 z-score
GAGGTTTTCTAATGTTTTTTAGTGCTA | 0.751 z-score
TTAGGTCTCCTAATGCTTTAGTGCTAG | -0.491 z-score
TTAGAACTGAGTTTCTATTAGTGCTAG | 2.52 z-score
TTAGGTATCGGACTGGGTTCGTGCTAG | 3.66 z-score
TTAGGACTGGACTTTCGGATAGTGCTA | 0.491 z-score
GACGGACTGCTCTTCCTGACGTGCTAG | -0.399 z-score
GACGGGCTGGGTATCGGGACGTGCTAG | 0.605 z-score
TTAGATTTCGGGTATCGATAAGTGCTA | 3.37 z-score
TTCGGTTTCCTTATCCTTTAGTGCTAG | 2.35 z-score
TACGATATCAGTATCGAGACGTGCTAG | 1.68 z-score

Block 3 — technique: RNA Bind-n-Seq; molecule type: RNA; sample: in vitro; concentration: not given; reference: input RNA pool; reading: higher = stronger binding
Target: RING finger protein unkempt homolog, zinc fingers 1-6, GST-SBP tag (UNK, Homo sapiens, UniProt Q9C0B0, residues 30-357)
Setting: RNA with constant flanks, human-mouse chimeric sites, ends assumed
All sequences stand within: GGGAGUUCUACAGUCCGACGAUC … CAACAGAGGAUUGAGCAUCA
Construct (chain): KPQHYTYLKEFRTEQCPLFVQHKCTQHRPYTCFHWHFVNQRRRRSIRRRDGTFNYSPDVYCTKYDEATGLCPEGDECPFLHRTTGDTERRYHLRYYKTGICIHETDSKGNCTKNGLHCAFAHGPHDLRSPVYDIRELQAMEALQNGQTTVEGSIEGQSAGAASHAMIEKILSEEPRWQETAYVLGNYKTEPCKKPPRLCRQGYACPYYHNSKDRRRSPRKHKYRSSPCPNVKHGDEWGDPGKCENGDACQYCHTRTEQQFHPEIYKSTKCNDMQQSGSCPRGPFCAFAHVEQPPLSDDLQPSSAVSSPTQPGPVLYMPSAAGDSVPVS
Oligonucleotide | bound/input enrichment
UUAAUCCCCUUUACUGCUCCACCACUGCUCAUGGUAAUAACAAAGUCUUAUAUCCCCAUAUUAGCUUUCACUCAGAUGGCUUAUGGAGCCGGUUUCCUAGCUUUCUUGGGAGGGAUCAGA | 0.356 ratio
GUGUCCUGCUUUCAACUUAAAUCACUGAGGCAUCUCUACUGUUCUGUUAAAAUCAGGACUGUAGCGCUGUGUCACCACAUGAGAGUUCAGAAGCAGCCUUUCUGUGGAGAGUGAGAAUGA | 0.087 ratio
GGAAGUACAUUAAUGGAGAUUGAUGGUGACAAAGGCAAGCAGGGCGGGCCCACCUACUACAUAGACACCAAUGCCCUGCGUGUUCCGAGGGAGAACAUGGAGGCCAUCUCACCACUCAAG | 0.253 ratio
UAAGUUAUUUUGUACAGCUUUGUAAAUUCUUAACAUUUUUAUAUUGCCAUGUUUAUUUUUUUUAGAUAAUUUGGUUCAUUAAGUACAUAGCUAAGGUAAUGAACAUCUUUUUCAGUAAUU | 3.66 ratio
CUCAGAGAUGUGGCAUAUCAGUAUGUGAAAAAGGGGGCUCGUAUAUUUGUGGAAGGGAAAGUGGACUAUGGCGAGUACAUGGAUAAAAAUAAUGUGAGGCGACAAGCAACAACAAUCAUA | 0.495 ratio
UAUCCAACUUUCUUGCCACAUUUUGAAUUCCAAGAUGUUAUUCCUCCAGAUGACUUCCUAACGAGUGAUGAAGAGCAAGAUUUGGUUUUAUUUGGAACUAUGAGAGGACAAGUUGUUGGA | 0.186 ratio
GUACUGCAGCAGCAGGGCAAGCUGCAGGAAGCUCUGAUGCAUUAUAAGGAGGCUAUUCGAAUCAGUCCUACCUUUGCUGAUGCCUACUCCAAUAUGGGAAACACUCUAAAGGAGAUGCAG | 0.201 ratio
GUAUACGGUUAUCGAGGAAAGGACUGUAGAGCUAAUGUAUACCUGCUUCCGACCGGGGAGAUAGUUUAUUUUAUCGCCUCAGUGGUAGUCCUGUUUAAUUAUGAGGAGAGGACUCAGCGA | 0.303 ratio
GUCAACAGCUGCCUCAACCCCAUCCUCUACGCCUUCCUGGAUGAGAACUUCAAGGCCUGCUUUAGAAAGUUCUGCUGUGCUUCUGCCCUGCGCCGGGACGUGCAGGUGUCUGACCGCGUG | 0.372 ratio
AGUGUGCAGGAAUUCAUGACCUUCACGAGUCAACUGAUUGUGGAACGCUCGGGGAAAGGCAGCAGAGCUUCUGUCAAAGAACAAGAGUAUCUGUGCCAUGUCUACGUCCGGAGCGACAGU | 0.0509 ratio
CUUAUGGCUGCAGAAACAGGAAGUGGCAAAACUGGUGCAUUUAGUAUUCCCGUUAUCCAGAUAGUGUAUGAAACUCUGAAAGACCAACAGGAAGGAAAGAAAGGGAAAACAACUAUUAAA | 0.82 ratio

Block 4 — technique: RNA Bind-n-Seq; molecule type: RNA; sample: in vitro; concentration: 365 nM; reference: no-protein control; reading: higher = stronger binding
Target: RNA binding protein fox-1 homolog 2, RRM domain, GST-SBP tag (RBFOX2, Homo sapiens, UniProt O43251-10, residues 100-194)
Setting: natural RNA segment, single round, ends assumed
All sequences stand within: GGGAGUUCUACAGUCCGACGAUC … UGGAAUUCUCGGGUGCCAA
Residues (chain): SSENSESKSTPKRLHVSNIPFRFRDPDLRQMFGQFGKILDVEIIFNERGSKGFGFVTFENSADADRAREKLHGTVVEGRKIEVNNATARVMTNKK
Oligonucleotide | RBNS enrichment (R)
UGGGAGGCCGAGGCUGGCAGAUCACUUGAGGCUGGGAGUUAGAGACCAACCUGGCUAACAUGGCAAAACCUCGUCUCUACUAAAAAUACAAAAAUCAGCCCGGCGUGGUG | 0.281
CCUUCCCACUGACUUACACUCGUCUAUCUAGAAUACAGGUUGUCCAGGCAGCUGGUCACUUACCAGGUGUGGACUUACGUUGCUGGGCUUGCAAAUGAAUUGCUAGUCCC | 0.315
AUGCUUAAGAAUAAUUGCCUCUUGGGCAAGAUGAUUGGGCUCCUGGCAAAUGUUCAAUUAAAAAGUGACUAUAGUGAAAAUGAAAUAAAUUAUGGGGGAAAGGUGGCUGU | 1.16
GAGUUAGUUACCAGCUUCCUUGAUUUCAUCUAUACACAAUGAUUAAGUGCAUUUAAUAUUGGUAAUUUAAUGAAAAGCAUUCCUUGCCCAAUGGAUGUAAACAUUUUUGA | 0.645
GGAAGCCCAUGAGUAGUAAUUAGACUGUAUUCUUAAGUGUAGACCUUUGCUAAUGUCAGAGACAGUUCCUAACCUAGUAACAGUUCACUUUGCGUCGUUUCUGUACUUCU | 0.45
GUGGAACAUCUGGGAAUUUGAGAAGUAUCUGCAAAGUAUAGAAAAAUCAACAGAUUUGUGGACCCUGGUAAAGAAGUUCAGCCAAGUCUCAGUGAAAAAUGUUAAGAAGU | 0.346
AGGACCAUCUGAGCGGGCAGCCAAACCUGCUUCACAGUAUCAAUAAAGCGGUUCUUUGAGGUCUGGCUCCUGGGCUCCGUCAGACCACCUUGUGCAGCCCUCUCAUCUUU | 0.509
AAUUUGAUUAAAGGCAGAGUUUAGUAGACUUAAGAGCUUGCAAGGUUUUAAGAAAAUGUAGUGCCUCGUGGCUCCCUGGUUUAGUAACUUGGAGAGACAGUCUGUAGGAA | 0.786
UCUUCCUGUGCUCCUUGAUCACCUGAGCUGCCUCAGAUUCCAUUUGGUCCUCUCCUUCCUGGAAGGCUUCCUUUUAUGUUUUGUUUUAAUCCCAAAUGUCUGAAUGUUUU | 0.895
CCGCUGGAGGGGUUUCAAUCCCCCACCCUGGGGCUCUUCUGCGCAGAAGCUGAAGUCUACGCUCCUCCCAAUCUUUGGUCCCAGUGCCGCUGUUCGCCUUCCUGCUGGUU | 0.331
GAACUCGAAAAUGGUGUUGCUUCAUGUACUUUGAAAACCAAUCAGGUGUUUCCUGCGCUACUACUUGUCAUGUUGCAUUCAUGUUCACAUCCUGAUUUCACUGCCUCAGA | 0.252
UACCUGUACUAAACCACCUCAGAAAGGAUUUUACAGAAACGUGUUAAAGGUUUUCUCUAACUUCUCAAGUCCCUUGUUUUGUGUUGUGUCUGUGGGGAGGGGUUGUUUUG | 0.581

A few entries again (block 2):
Oligonucleotide | fitted relative affinity
GACGGGCTGGGTATCGGGACGTGCTAG | 0.605 z-score
TTAGATTTCGGGTATCGATAAGTGCTA | 3.37 z-score
TTCGGTTTCCTTATCCTTTAGTGCTAG | 2.35 z-score
